Measured values from different studies.
Compare with care: the assays were run in different laboratories. Several values in a cell are separate wells, animals, samples, runs or records. Numbers after ± are the reported error.
Alpha-galactosidase: Alpha-galactosidase (Coffea arabica, UniProt Q42656)
NPY1R: Neuropeptide Y receptor type 1 (NPY1R, Homo sapiens, UniProt P25929)
Beta-lactamase CTX-M-27: Beta-lactamase CTX-M-27 (Escherichia coli, UniProt Q840M4)
IDO1: Indoleamine 2,3-dioxygenase 1 (IDO1, Homo sapiens, UniProt P14902)
BIRC3 BIR3: Baculoviral IAP repeat-containing protein 3, BIR3 (BIRC3, Homo sapiens, UniProt Q13489)
CA5A: Carbonic anhydrase 5A, mitochondrial (CA5A, Homo sapiens, UniProt P35218)

SMILES = O=c1c2ccccc2n(CC2CC2)c(=O)n1O; target = Flap endonuclease 1 (Homo sapiens, UniProt P39748); test = inhibitor; setting = together with: double-flap substrate DF1; Ki = 0.017 ± 0.002 µM
SMILES = Cc1cc(N)nc(C[C@H]2CNC[C@H]2OCCC/C=C/c2cccc(F)c2)c1; target = NOS3 (Bos taurus, UniProt P29473); test = enzyme activity, inhibitor; setting = pH 7.4; Ki = 69 µM
SMILES = OB(O)c1cnn(-c2cccc(Cl)c2)c1; target = Chymotrypsinogen A (Bos taurus, UniProt P00766); test = enzyme activity, inhibitor, absorbance; Ki = 0.3 µM
SMILES = CCCCN1[C@H](CCC)[C@H](O)[C@@H](O)[C@H](O)[C@H]1CO; target = Alpha-galactosidase; test = enzyme activity, competitive inhibitor; setting = green coffee bean enzyme, optimal pH, together with: p-nitrophenyl glycopyranoside; Ki = > 2000 µM
SMILES = CC(C)C[C@H](NC(=O)N(CCCNC(=N)N)NC(=O)[C@H](Cc1ccc(O)cc1)NC(=O)CCCCCCC(=O)N[C@@H](Cc1ccc(O)cc1)C(=O)NN(CCCNC(=N)N)C(=O)N[C@@H](CC(C)C)C(=O)N[C@@H](CCCNC(=N)N)C(=O)N[C@@H](Cc1ccc(O)cc1)C(N)=O)C(=O)N[C@@H](CCCNC(=N)N)C(=O)N[C@@H](Cc1ccc(O)cc1)C(N)=O; target = NPY1R; test = ligand displacement, radioligand; Ki = 0.053 µM
SMILES = Brc1ccccc1-c1nnc(CSc2nnnn2-c2ccccc2)o1; target = OPRK1 (Homo sapiens, UniProt P41145); test = ligand displacement, radioligand; Ki = 2.05 µM
SMILES = CN[C@@H](C)C(=O)N[C@H]1CN(C(=O)Cc2ccccc2)CC[C@H]2CC[C@@H](C(=O)NCc3cccc(Br)c3)N2C1=O; target = Baculoviral IAP repeat-containing protein 2, BIR3 (BIRC2, Homo sapiens, UniProt Q13490); test = ligand displacement, FP; Ki = 0.0222 µM
SMILES = O=C(Nc1cccc(-c2nn[nH]n2)c1)c1cc(-c2ccncc2)cc(C(F)(F)F)c1; target = Beta-lactamase CTX-M-27; test = enzyme activity, inhibitor, absorbance; setting = pH 7; Ki = 3.06 µM
SMILES = O=C(Cc1ccccc1)Nc1ccccc1NC(=O)Cc1ccccc1; target = PPXII (Nicotiana tabacum, UniProt O24164); test = enzyme activity, inhibitor, fluorescence; Ki = 2.21 µM
SMILES = CCC(=O)NCCCCNC(=O)NCc1ccc(CNC(=O)[C@@H](CCCNC(=N)N)NC(=O)C(c2ccccc2)c2ccccc2)cc1; target = NPY1R; test = ligand displacement, radioligand; setting = cell membranes; Ki = 0.028 µM and 0.025 µM
SMILES = COC1=Cc2c(cc(O)c3cc(C)c(OC)cc23)C(C)(C)C1=O; target = IDO1; test = enzyme activity, inhibitor; setting = together with: L-tryptophan 7.5 to 30 µM; Ki = 6.9 µM
SMILES = CN[C@@H](C)C(=O)N[C@H]1CN(C(=O)Cc2ccccc2)CC[C@H]2CC[C@@H](C(=O)NCc3ccccc3C(F)(F)F)N2C1=O; target = BIRC3 BIR3; test = ligand displacement, FP; Ki = 0.0554 µM
SMILES = COCCOc1cc2ncnc(Nc3cccc(-c4cn(CC(=O)Nc5cccc(S(N)(=O)=O)c5)nn4)c3)c2cc1OCCOC; target = CA5A; test = enzyme activity, inhibitor, stopped-flow; Ki = 0.0124 µM
SMILES = Nc1nccc(-n2cc(C(=O)N[C@H]3CCCNC3)c3ccc(C#CC4(O)CCCCC4)cc32)n1; target = PAK4 (Homo sapiens, UniProt O96013); test = cell-free assay, inhibitor, TR-FRET; Ki = 0.0482 µM
SMILES = Cc1cc(O)c2c(c1)[C@H]([C@@H]1O[C@H](CO)[C@@H](O)[C@H](O)[C@H]1O)c1cccc(O)c1C2=O; target = IDO1; test = uncompetitive inhibitor, Lineweaver-Burk plot; Ki = 80.3 µM
SMILES = CN[C@@H](C)C(=O)N[C@H]1CN(C(=O)Cc2ccccc2)CC[C@H]2CC[C@@H](C(=O)NCc3ccc(C)cc3)N2C1=O; target = BIRC3 BIR3; test = ligand displacement, FP; Ki = 0.0116 µM
SMILES = CC1(C)C2=C3C=C4C5=[N+](CCC4OC3CCN2c2ccc(S(=O)(=O)[O-])cc21)c1ccc(C(=O)NCCCCOc2ccc(C(=O)CCCN3CCC(O)(c4ccc(Cl)cc4)CC3)cc2)cc1C5(C)C (stereo not shown); target = DRD1 (Homo sapiens, UniProt P21728); test = cell-free assay, radioligand; Ki = 3.6 µM
SMILES = CCN(CC)c1ccc(CNC(=O)[C@@H]2CC[C@@H]3CCN(C(=O)Cc4ccccc4)C[C@H](NC(=O)[C@H](C)NC)C(=O)N32)cc1; target = BIRC3 BIR3; test = ligand displacement, FP; Ki = 0.255 µM
SMILES = CC[C@H](C)[C@H](NC(C)=O)C(=O)N[C@H](C(=O)N[C@H](C(=O)N[C@@H](CCCCN)C(=O)N[C@H](C=O)CC(=O)O)C(C)C)[C@@H](C)O; target = Caspase-7 (CASP7, Homo sapiens, UniProt P55210); test = enzyme activity, inhibitor, fluorescence; setting = pH 7; Ki = 5.62 µM
SMILES = CC(=O)NCC(=O)N[C@@H](CC(=O)O)C(=O)N[C@@H](Cc1ccc(O)cc1)C(=O)N[C@@H](CO)C(=O)N[C@@H](Cc1cnc[nH]1)C(=O)N[C@H]1CSSC[C@@H](C(=O)N[C@H](C(=O)N[C@@H](Cc2ccc(O)cc2)C(=O)N2CCC[C@H]2C(=O)N[C@@H](CC(=O)O)C(=O)N2CCC[C@H]2C(=O)N[C@@H](CCC(=O)O)C(=O)NCC(=O)NCC(=O)NCC(N)=O)[C@@H](C)O)NC(=O)[C@H](CCCCN)NC(=O)[C@H](Cc2c[nH]c3ccccc23)NC(=O)[C@H](Cc2c[nH]c3ccccc23)NC(=O)[C@@H]2CCCN2C(=O)[C@H](Cc2ccc(O)cc2)NC(=O)[C@H](Cc2ccc(O)cc2)NC(=O)[C@H](CCCNC(=N)N)NC(=O)[C@H](CC(C)C)NC(=O)[C@@H]2CCCN2C(=O)[C@H](CO)NC1=O; target = ACE2 (Homo sapiens, UniProt Q9BYF1); test = inhibitor; Ki = 0.2 ± 0.01 µM
SMILES = CN[C@@H](C)C(=O)N[C@H]1CN(C(=O)Cc2ccccc2)CC[C@H]2CC[C@@H](C(=O)NCc3ccc(Cl)cc3)N2C1=O; target = BIRC3 BIR3; test = ligand displacement, FP; Ki = 0.003 µM
SMILES = CCCCCCCC/N=C1/SC[C@@H]2[C@@H](O)[C@H](O)[C@@H](O)[C@@H](CCC)N12; target = Alpha-galactosidase; test = enzyme activity, competitive inhibitor; setting = green coffee bean enzyme, optimal pH, together with: p-nitrophenyl glycopyranoside; Ki = > 2000 µM
SMILES = CC1(C)OB(c2ccc(/N=N/c3ccccc3)cc2)OC1(C)C; target = ORAI1 (Homo sapiens, UniProt Q96D31); test = ion current, inhibitor, patch clamp; Ki = 4.96 µM
SMILES = CCC[C@H]1CC[C@H](c2ccc(NC(=S)NC[C@@H]3[C@@H](O)[C@@H](O)[C@H]4[C@H](O)CCCN43)cc2)CC1; target = Alpha-mannosidase 2 (Homo sapiens, UniProt Q16706); test = inhibitor, fluorogenic; setting = together with: 4-methylumbelliferyl α-mannoside; Ki = 0.03 µM
SMILES = CN(C)c1ccc2c(c1)C(=O)N([C@H](CS)C(=O)O)C2=O; target = VIM-2 (Escherichia coli, UniProt Q5U7L7); test = enzyme activity, inhibitor; setting = Km 8 µM, together with: chromacef 25 µM; Ki = 0.3 ± 0.01 µM
SMILES = O=C(Nc1cccc(-c2nn[nH]n2)c1)c1cc(-n2ccnn2)cc(C(F)(F)F)c1; target = Beta-lactamase CTX-M-27; test = enzyme activity, inhibitor, absorbance; setting = pH 7; Ki = 3.65 µM
SMILES = COCCOc1cc2ncnc(Nc3cccc(-c4cn(CC(=O)Nc5ccc(S(N)(=O)=O)cc5)nn4)c3)c2cc1OCCOC; target = CA5A; test = enzyme activity, inhibitor, stopped-flow; Ki = 0.0083 µM
SMILES = CN[C@@H](C)C(=O)N[C@H]1CN(C(=O)Cc2ccccc2)CC[C@H]2CC[C@@H](C(=O)NCc3ccc(-c4ccccc4)cc3)N2C1=O; target = BIRC3 BIR3; test = ligand displacement, FP; Ki = 0.172 µM
